Measurements collected from several papers.
Numbered parts are unrelated; each lists some results of a single study. Changes are numbered by the printed parent chain.

Block 1
Target: Histone acetyltransferase KAT6A, winged helix 2, GST fusion (KAT6A, Homo sapiens, UniProt Q92794, residues 85-181)
Technique: protein binding microarray
Molecule type: double-stranded DNA, one strand shown
Medium: in vitro
Concentration: not given
Setting: 8-mer, flanks averaged, mean of 2 arrays, mostly near background
Reference: not given
Direction: higher = stronger binding
Residues (chain): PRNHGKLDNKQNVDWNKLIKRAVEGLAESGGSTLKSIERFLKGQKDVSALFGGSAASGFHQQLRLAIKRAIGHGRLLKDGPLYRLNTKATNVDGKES
For `AGACGACT`, the E-score was -0.00194.
`AAACGCGC` has an E-score of 0.00642.
`GAATTAAA` gave an E-score of -0.0553.
For `ACCCCCAT`, the E-score was -0.134.
`CTCACAGC` has an E-score of 0.077.
The E-score of `ATCGTCTG` is reported as -0.0893.
`CAGCAGAA` has an E-score of 0.0091.
With `CCTCCAGG` the E-score was 0.00248.
For `GTATAATA`, the E-score was 0.227.
For `GTGCTGTA`, the E-score was 0.129.
For `GTCTATAA`, the E-score was -0.0311.
`AAGAGAAT` has an E-score of 0.123.
For `TCGAACGA`, the E-score was -0.158.
`CCCTAAAG` has an E-score of -0.0273.
`ACGGCCAT` has an E-score of -0.137.
`TTCCCCAA` gave an E-score of -0.036.
`CCTATAGC` has an E-score of -0.185.
The E-score of `AAAGCCAC` is reported as 0.0401.
`CGACCCCC` gave an E-score of -0.177.
With `GTGGCTGA` the E-score was 0.025.
`AATTACAG` has an E-score of 0.0165.
For `AATGAACA`, the E-score was -0.0716.
With `GTTTGAGA` the E-score was 0.0503.
For `AGGAGAGG`, the E-score was -0.0132.

Block 2
Cell line: yeast with cyclin F-Cln2 chimera
Observed: cell growth
Mode: binder
Technique: competitive growth deep sequencing
Molecule type: peptide
Concentration: concentration not given
Setting: peptide tiling library
Direction: direction not given
For `IVLICAKRSLCAAFSV`, “growth enrichment score” read 1.01.
`DSDSDSEGGAAGGEAD`: “growth enrichment score” 1.41.
`PAKRRLELGE` — result for “growth enrichment score”: 3.46.
`KRCATPVIIDEILPSK` — result for “growth enrichment score”: -0.0794.
For `VKRLNFRSEEME`, “growth enrichment score” read 1.96.
`SSEVARHLLFQSHM`: “growth enrichment score” 3.03.
For `ALTMEALEDPSPELME`, “growth enrichment score” read 0.667.
`FREFEVEKQTAEETGL` — result for “growth enrichment score”: 0.568.
Under “growth enrichment score”, `SAVPLILPQAPSGPSY` is recorded as 0.348.
`NARRSLNFGGSTGT`: “growth enrichment score” 3.99.
For `TARRIFQEPTEPKTKA`, “growth enrichment score” read 2.74.
`ESSQLTVQAEFDMSAI`: “growth enrichment score” 0.0226.
For `RRVLCFDS`, “growth enrichment score” read 2.8.

Block 3
Target: Fragile X messenger ribonucleoprotein 1, C-terminal low-complexity region (Fmr1, Mus musculus, UniProt P35922)
Technique: RNA Bind-n-Seq
Molecule type: RNA
Medium: in vitro
Concentration: 200 nM
Setting: whole 134-nt RNA, ends assumed
With: 150 mM KCl
Reference: input library
Direction: higher = stronger binding
With `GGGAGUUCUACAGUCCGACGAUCCCUCAAGUCCUGUGCUACACAUCGUAUGUACCGAAUCGGAGGAAAGGUUUGGAAAGUAUUAUGUUACGCCGUUCGGAUCUGCACUUCCAGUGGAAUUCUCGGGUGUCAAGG` the log2 enrichment was -0.269.
`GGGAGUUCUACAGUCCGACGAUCGCAGGAAGUAAAAACAAAUGGAAAUGCUUCGGAUAGUGGCAGGGGUGGGGGUUGCUAAGGAAAGGGUGGGAUGGGAGUGGGUAAAGAUUUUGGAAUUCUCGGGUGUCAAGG` has a log2 enrichment of 0.243.
With `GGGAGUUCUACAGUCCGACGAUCUCCUGUGCUACACAUCGUAUGUACCGAAUCAAAUUUUUUUAAAUUUUUAAACCCCCAAAAAAGUAUUAUGUUACGCCGUUCGGAUCUGCAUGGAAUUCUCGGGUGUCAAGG` the log2 enrichment was 0.432.
`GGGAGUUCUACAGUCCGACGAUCAAAUAUCAGUGAUCAUCGCAAGGAAGGAGGCAGACAAGAGUAAGGCACACCUGACUCUUAGGACUAGCAGUCAGAACCAGGAGGAAAGGUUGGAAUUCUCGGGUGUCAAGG` has a log2 enrichment of -0.117.
With `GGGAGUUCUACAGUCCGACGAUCUGGGAGGUGGAUUUUGUUUAUUUUUUUAGCUCAUUUCCAGGGGUGGGAAUUUUUUUUUAAUAUGUGUCAUGUAUAAAGUUGUUUUUGAAAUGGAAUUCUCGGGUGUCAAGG` the log2 enrichment was 0.518.
`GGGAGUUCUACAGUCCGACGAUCCAAGUCCUGUGCUACACAUCGUAUGUACCGAAUCGGAAAAAAAGGAAAGGUUUGGAAAGUAUUAUGUUACGCCGUUCGGAUCUGCACUUCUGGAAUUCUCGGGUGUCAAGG` gave a log2 enrichment of -1.22.
`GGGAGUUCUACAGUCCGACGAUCUCCUCAAGUCCUGUGCUACACAUCGUAUGUACCGAAUCGGAGGUUUGGAGGAAAGUAUUAUGUUACGCCGUUCGGAUCUGCACUUCCAGCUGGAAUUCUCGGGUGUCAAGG` gave a log2 enrichment of -0.638.
With `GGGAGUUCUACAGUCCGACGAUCACCAUGCAGGUGGGCAUCUUUGGGAAGUGGGGCAACGGGGGGAUAGGGAGGGGGGUAACACUUUGGGAACAGGUGGUCCCAGGUCGUUUCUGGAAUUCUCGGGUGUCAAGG` the log2 enrichment was 0.659.
For `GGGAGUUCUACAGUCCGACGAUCGUCCUGUGCUACACAUCGUAUGUACCGAAUCGGGGAAAGGGGAAAGGGGUUUUUGGGGAAAGUAUUAUGUUACGCCGUUCGGAUCUGCACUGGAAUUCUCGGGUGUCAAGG`, the log2 enrichment was 0.232.
`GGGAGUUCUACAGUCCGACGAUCUAACUUUAGAGGAGGAUCUGAUGGAUAUGUCAGUGGACGUGGAUUUGGGGAUGGCUAUAAUGGGUAUGGAGGAGGACCUGGAGGUGGCAAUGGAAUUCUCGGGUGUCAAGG` has a log2 enrichment of 0.308.

Block 4
Target: ABI1, truncated, D143A, DHFR fusion (Arabidopsis thaliana)
Technique: DHFR PCA, deep sequencing
Medium: yeast
Setting: methotrexate growth selection, single substitutions
With: (+)-ABA 0.0091 µM
Reference: wild-type fitted maximum
Direction: higher = stronger binding
Starting sequence: PYL1, truncated, DHFR fusion (Arabidopsis thaliana); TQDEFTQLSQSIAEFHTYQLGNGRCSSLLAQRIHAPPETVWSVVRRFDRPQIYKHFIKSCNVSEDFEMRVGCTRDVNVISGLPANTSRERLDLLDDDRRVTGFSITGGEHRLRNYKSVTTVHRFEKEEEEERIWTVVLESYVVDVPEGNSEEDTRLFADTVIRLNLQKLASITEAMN; partner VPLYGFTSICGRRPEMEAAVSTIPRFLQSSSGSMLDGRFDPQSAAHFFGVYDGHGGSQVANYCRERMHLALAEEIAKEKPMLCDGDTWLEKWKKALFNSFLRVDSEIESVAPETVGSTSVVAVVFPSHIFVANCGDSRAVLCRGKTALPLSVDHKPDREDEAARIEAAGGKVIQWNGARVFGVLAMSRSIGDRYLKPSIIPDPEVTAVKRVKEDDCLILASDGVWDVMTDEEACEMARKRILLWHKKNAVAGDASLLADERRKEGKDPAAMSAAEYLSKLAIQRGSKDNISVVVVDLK
For `V145P`, “relative binding score” read 0.265%.
`A30M` — result for “relative binding score”: 38%.
Under “relative binding score”, `S63T` is recorded as 18%.
Under “relative binding score”, `D159M` is recorded as -6.05%.
`N85K` — result for “relative binding score”: 46.6%.
Under “relative binding score”, `V43G` is recorded as -2.45%.
`H55E` — result for “relative binding score”: 19.3%.
Under “relative binding score”, `E152K` is recorded as 2.55%.
Under “relative binding score”, `E67V` is recorded as 41%.
`L138C`: “relative binding score” 1.64%.
`H34C` — result for “relative binding score”: 34.8%.
`R46I` — result for “relative binding score”: -4.13%.
For `E130L`, “relative binding score” read 16.8%.
`V137F` — result for “relative binding score”: 0.336%.
`I172C` — result for “relative binding score”: 1.41%.
Under “relative binding score”, `L82C` is recorded as 15%.
For `N114A`, “relative binding score” read -0.739%.
`I172K` — result for “relative binding score”: 0.0412%.
Under “relative binding score”, `E147N` is recorded as 11.2%.
`R113G`: “relative binding score” 1.81%.
For `C72W`, “relative binding score” read 3.74%.
Under “relative binding score”, `R69M` is recorded as 5.74%.
Under “relative binding score”, `Q7M` is recorded as 23.3%.
`K126I`: “relative binding score” 25.3%.

Block 5
Target: Sal-like protein 4, full length isoform B (SALL4, Homo sapiens, UniProt Q9UJQ4-2, residues 1-616)
Technique: universal PBM
Molecule type: double-stranded DNA, one strand shown
Medium: in vitro
Concentration: not given
Setting: 8-mer, flanks averaged, mean of replicates
Direction: higher = stronger binding
With `GGGCGCAA` the E-score was -0.22.
For `CGACGAAG`, the E-score was -0.108.
`GAATGGTC` has an E-score of -0.194.
`ACACATCA` gave an E-score of 0.0538.
For `AGCTGATG`, the E-score was -0.155.
The E-score of `AGCCAAAG` is reported as -0.0675.
With `GCGGCCGA` the E-score was -0.231.
With `CAGCGTAC` the E-score was -0.253.
`ACTAGCCG` has an E-score of -0.24.
With `GGTCCTAC` the E-score was -0.241.
With `AAACCGCT` the E-score was -0.103.
With `CGGTGTCA` the E-score was -0.246.
For `AATTTTAA`, the E-score was 0.384.
`GTGGTCAA` has an E-score of -0.0441.
For `CTAAGCTA`, the E-score was 0.0791.
`GAAGTTAC` has an E-score of -0.0113.
`CGAGACCA` has an E-score of -0.0696.
`CTTAAGCA` has an E-score of 0.0471.
`ATGGGATA` has an E-score of 0.111.
`ACCGATAG` has an E-score of -0.0415.
`CCCCCCTC` gave an E-score of -0.28.

Some of these lines once more (block 4):
For `C72W`, “relative binding score” read 3.74%.
For `V145P`, “relative binding score” read 0.265%.
Under “relative binding score”, `L82C` is recorded as 15%.
Under “relative binding score”, `V43G` is recorded as -2.45%.
`R46I` — result for “relative binding score”: -4.13%.
Under “relative binding score”, `E147N` is recorded as 11.2%.
